Assay results collected from several papers.
Lines come from different studies, so protocols differ. “And” joins repeats or separate records; there may be more than shown. Numbers after ± are the reported error.

SMILES	target or system	test	system	setting	how to read	measurement	value
Cc1ncsc1-c1ccc(C(C)NC(=O)C2CC(O)CN2C(=O)C(NC(=O)CCCCCCCCCCN2CCCC(Nc3ncc(Cl)c(Nc4ccccc4S(=O)(=O)C(C)C)n3)C2)C(C)(C)C)cc1 (stereo not drawn)	22Rv1	RNA-seq, item: NAV3 mRNA		concentration not given	reference: DMSO	log2 fold change	-1.63
CCOC(=O)NCc1ccc(O[C@@H]2O[C@@H](C)[C@H](O)[C@@H](O)[C@H]2O)cc1		ABTS radical		300 µg/mL		radical scavenging	30.6 ± 0.91%
COc1cc(O)ccc1CCC(c1ccc(O)cc1)c1cc2c(c(C)c1O)OC(c1ccc(O)cc1)CC2 (mixture of isomers)		item: 12-HEPE	human whole blood	3 µM, with: Escherichia coli		amount	2810 ± 1290 pg/mL blood
CCCCCCCCCCCCCCCCCCCCCCCCCCCCOC(=O)/C=C/c1ccc(O)cc1		Oil Red O	3T3-L1, mouse	5 µM, day 8	reference: vehicle	lipid accumulation	99.7 ± 10.6%
CC(C)c1ccc(N(C)c2ccc3c(c2)OCC[C@H]3CNc2cnccc2C(=O)O)cc1		organoid viability	breast carcinoma organoid	patient-derived organoid model		IC50	13.6 µM
CN1CCCNC(=O)c2cccc(c2)C(=O)NCCCN(C)CCCNc2cccc3c2C(=O)c2cccc(c2C3=O)NCCC1			KSN/Slc nude mice, SAS xenograft	dose not given, day 6, 144 h		tumour volume	186 mm3 and 95.5 mm3 and 202 mm3 and 245 mm3 and 242 mm3
CC[C@H](C)[C@@H](C(=O)N[C@@H](CC(C)C)C(=O)N[C@@H](CO)C(=O)N[C@@H](CO)C(=O)N[C@H](C(=O)N[C@@H](CCC(=O)O)C(=O)N[C@H](C(=O)NCC(=O)N[C@@H](CO)C(=O)NCC(=O)N[C@H](C(=O)N1C[C@H](O)C[C@H]1C(N)=O)[C@@H](C)O)C(C)C)[C@@H](C)O)N(C)C(=O)[C@H](C)NC(=O)CN(C)C(=O)[C@H](Cc1ccccc1)NC(=O)[C@H](CO)NC(=O)[C@H](CO)NC(=O)[C@H](CCCNC(=N)N)NC(=O)[C@H](CCC(N)=O)NC(=O)[C@H](CC(C)C)NC(=O)[C@H](Cc1ccccc1)NC(=O)[C@H](Cc1c[nH]cn1)NC(=O)[C@H](C)NC(=O)[C@H](CC(C)C)NC(=O)[C@H](CCCNC(=N)N)NC(=O)[C@H](CCC(N)=O)NC(=O)[C@@H](NC(=O)[C@H](C)NC(=O)[C@@H]1CSSC[C@H](NC(=O)[C@H](CCCNC(=N)N)NC(=O)CC[C@H](NC(=O)CCCCCCCCCCCCCCCCCCC(=O)O)C(=O)O)C(=O)N[C@@H](CC(N)=O)C(=O)N[C@@H]([C@@H](C)O)C(=O)N[C@@H](C)C(=O)N[C@@H]([C@@H](C)O)C(=O)N1)[C@@H](C)O			male Sprague-Dawley rats	subcutaneous, 30 nmol/kg single dose, 96 h		body weight loss	5.8 ± 0.5%
Cc1ccc(NC(=O)CCN2CCCCCC2)cc1C		locomotor activity in dark	Danio rerio larvae, 7 dpf, well of 10 larvae	10 µM, minute 3, dark		third-quartile larval motion	0.8 ± 0.6 pixels/frame
Cc1cccc(C)c1CNc1cc(C(=O)N2CCC2)cn2c(C)c(C)nc12		histamine-stimulated acid secretion	dog, Heidenhain pouch	oral, 3 mg/kg, 3 h, 9 h after dosing		inhibition	100%
COc1cc2nc(N3CCN(C(=O)C4CC5(CC5)CO4)CC3)nc(N)c2cc1OC (stereo not drawn)		blood pressure	spontaneously hypertensive rat, male	oral, 3 mg/kg		time to maximum BP lowering	15 min
COc1ccc(NC(=O)c2ccc3[nH]c(-c4ccc(N(C)C)cc4)nc3c2)cn1			CT26, BALB/c nude mice, subcutaneous graft	dose not given, day 4		tumour volume	176 mm3 and 221 mm3 and 190 mm3 and 405 mm3 and 319 mm3
CCOC(=O)CCCCC1NCCc2cc(O)c(O)cc21 (stereo not drawn)		DPPH scavenging, absorbance		30 min, dark		IC50	19.6 µM
Cc1ccc(C)c(OCC(O)CN2CCN(c3cc(Cl)ccc3C)CC2)c1 (stereo not drawn)		locomotor activity in dark	Danio rerio larvae, 7 dpf, well of 10 larvae	10 µM, minute 5, dark		third-quartile larval motion	0.2 ± 0.2 pixels/frame
COc1cnc2cccc(N3CCc4c(cc(Cn5ccnc5)cc4-c4cn(C)nc4C(F)(F)F)C3=O)c2c1			BALB/c nude mice, MV4-11 xenograft	intraperitoneal, 100 mg/kg, day 24		tumour volume	168 mm3 and 124 mm3 and 148 mm3 and 93 mm3 and 91 mm3
COc1ccc(C(=O)CCc2cc(C(CCc3ccc(O)cc3OC)c3ccc(O)cc3)c(O)cc2OC)cc1 (racemic)		item: 12-HEPE	human whole blood	30 µM, with: A23187		amount	227 ± 62 pg/mL blood
COC1CN([C@H]2CC[C@H]([C@@]3(C)Oc4c(Cl)cc(C(=O)NCc5c(SC)cc(C)[nH]c5=O)c(C)c4O3)CC2)C1		RNA-seq, item: SV2C mouse homolog	mouse, HT-1376 xenograft, whole blood	dose not given	reference: vehicle	log2 fold change	0.167
COCCNCCOc1cc(C)cc(C(C)C)c1		locomotor activity in dark	Danio rerio larvae, 7 dpf, well of 10 larvae	10 µM, minute 7, dark		third-quartile larval motion	7 ± 0.7 pixels/frame

SMILES	target or system	test	system	setting	how to read	measurement	value
CN1CCC[C@]1(C)/C=C/S(=O)(=O)NC(=O)Nc1c2c(cc3c1CCC3)CCC2			human, whole blood ex vivo	100 mg single dose, 24 h, single ascending dose, with: LPS and ATP		IL-1β inhibition	95.2%
CC(=O)[O-].O.O.O.O.[Ni+2].[O-]c1ccc(Br)cc1C=NCCN1CCOCC1		superoxide scavenging		40 µM		inhibition	4.29%
CCC(CC)n1c(Cc2ccco2)nc2cc(C(=O)N[C@@H](CC(=O)O)c3ccccc3)ccc21			mouse, HFpEF model (HFD plus L-NAME)	ip, 20 mg/kg/day, 2 wk		myocardial capillary density	increased
O=C(O)c1cccc(CN2Cc3cccc(n3)CN(Cc3cccc(C(=O)O)n3)Cc3cccc(n3)C2)n1		HPLC	water	25 °C, Mn complex dissociation, with: 25 equiv Zn2+		transmetallation rate constant	0.0001 s⁻¹
O=C(NCC1OC2CCC=CCCC2O1)c1ccc(F)nc1 (stereo not drawn)		IEDDA cycloaddition, substrate, stopped-flow spectrophotometry	water/methanol 45:55	0.5 mM, 298 K, with: methyltetrazine-NHS 0.05 mM		observed rate constant kobs	5.52 ± 0.0172 s⁻¹
CC(C)C[C@H](NC(=O)[C@H](Cc1ccccc1)NC(=O)[C@H](C)NC(=O)[C@@H](CS)NC(=O)CNC(=O)[C@H](N)CO)C(=O)N[C@@H](CO)C(=O)N[C@H](C(=O)N[C@@H](CCCCN)C(=O)N[C@@H](CCCCN)C(=O)N[C@@H](CCC(N)=O)C(=O)N[C@@H](Cc1ccccc1)C(=O)N[C@@H](CCC(=O)O)C(=O)N[C@@H](CCC(=O)O)C(=O)N[C@@H](CC(C)C)C(=O)N[C@H](C(=O)N[C@@H](CC(C)C)C(=O)NCC(=O)N[C@@H](CCC(=O)O)C(=O)N[C@@H](Cc1ccccc1)C(=O)N[C@@H](CC(C)C)C(=O)N[C@H](CCCCN)C(=O)N[C@H](CC(C)C)C(=O)N[C@H](CC(=O)O)C(=O)N[C@@H](CCCNC(=N)N)C(=O)N[C@H](CCCNC(=N)N)C(=O)N[C@@H](CCCNC(=N)N)C(=O)N[C@@H](CCCCN)C(=O)O)[C@@H](C)O)C(C)C		immunostaining, RT-qPCR	mouse A549 xenograft, tumour	intratumoral, dose not given		Ki-67 level decrease	90%
NNC(=O)Cc1ccccc1		hydrazine ligation kinetics, absorbance		concentration not given, 50 s, with: 2-formylphenylboronic acid		normalised absorbance	0.762
COc1ccccc1-c1ccncc1C(=O)Nc1nnc(OCc2ccc(Cl)cc2)s1			Brca1 Δ11/Δ11 MEF sgGFP, Mus musculus	10 µM, mean of runs 2, 3	reference: 0 µM	colony survival	46.6%
Cc1ccc(S(=O)(=O)NN)cc1		hydrazine ligation kinetics, absorbance		concentration not given, 30 s, with: 2-formylphenylboronic acid		normalised absorbance	0.847
Cc1cc(NC(=O)CCN2CCCCC2)ccc1Br		locomotor activity in dark	Danio rerio larvae, 7 dpf, well of 10 larvae	10 µM, minute 1, dark		third-quartile larval motion	2.7 ± 0.6 pixels/frame
CC[C@H](C)[C@@H](C(=O)N[C@@H](CC(C)C)C(=O)N[C@@H](CO)C(=O)N[C@@H](CO)C(=O)N[C@H](C(=O)N[C@@H](CCC(=O)O)C(=O)N[C@H](C(=O)NCC(=O)N[C@@H](CO)C(=O)N[C@@H](CO)C(=O)N[C@H](C(=O)N1CCC[C@H]1C(N)=O)[C@@H](C)O)C(C)C)[C@@H](C)O)N(C)C(=O)[C@H](C)NC(=O)CN(C)C(=O)[C@H](Cc1ccccc1)NC(=O)[C@H](CO)NC(=O)[C@H](CO)NC(=O)[C@H](CCCNC(=N)N)NC(=O)[C@H](CCC(N)=O)NC(=O)[C@H](CC(C)C)NC(=O)[C@H](Cc1ccccc1)NC(=O)[C@H](Cc1c[nH]cn1)NC(=O)[C@H](C)NC(=O)[C@H](CC(C)C)NC(=O)[C@H](CCCNC(=N)N)NC(=O)[C@H](CCC(=O)O)NC(=O)[C@@H](NC(=O)[C@H](C)NC(=O)[C@@H]1CSSC[C@H](NC(=O)[C@H](CCCNC(=N)N)NC(=O)CC[C@H](NC(=O)CCCCCCCCCCCCCCCCCCC(=O)O)C(=O)O)C(=O)NCC(=O)N[C@@H]([C@@H](C)O)C(=O)N[C@@H](C)C(=O)N[C@@H]([C@@H](C)O)C(=O)N1)[C@@H](C)O			male Sprague-Dawley rats	subcutaneous, 30 nmol/kg single dose, 96 h		body weight loss	5.1 ± 0.2%
Cc1cc(C)cc(NC(=O)CCN2CCCCCC2)c1		locomotor activity in dark	Danio rerio larvae, 7 dpf, well of 10 larvae	10 µM, minute 5, dark		third-quartile larval motion	8.3 ± 2 pixels/frame
C[C@@H]1O[C@@H](Oc2ccc(CC(N)=O)cc2)[C@H](O)[C@H](O)[C@H]1O		DPPH radical		300 µg/mL		radical scavenging	7.09 ± 0.76%
Cc1cccc(NC(=O)CCN2CCN(C/C=C/c3ccccc3)CC2)c1		locomotor activity in dark	Danio rerio larvae, 7 dpf, well of 10 larvae	10 µM, minute 7, dark		third-quartile larval motion	1.2 ± 0.3 pixels/frame
CCOC(=O)NN		hydrazine ligation kinetics, absorbance		concentration not given, 40 s, with: 2-formylphenylboronic acid		normalised absorbance	0.828
CCCCCCCCCCCCCCCC(=O)OCC(CSC[C@H](N)C(=O)N[C@@H](CO)C(=O)N[C@@H](CCCCN)C(=O)N[C@@H](CCCCN)C(=O)N[C@@H](CCCCN)C(=O)N[C@@H](CCCCN)C(=O)NCCCCCC(=O)N[C@@H](CCCCN)C(=O)N[C@@H](CC(C)C)C(=O)N[C@H](C(=O)N[C@@H](Cc1ccccc1)C(=O)N[C@@H](Cc1ccccc1)C(=O)N[C@@H](Cc1ccc2ccccc2c1)C(=O)O)C(C)C)OC(=O)CCCCCCCCCCCCCCC (stereo partly drawn)		Thioflavin S staining	APP/PS1 transgenic mouse, cortex	local cortical injection, dose not given, unit not given	reference: injected over adjacent side	Aβ plaque level	0.465 and 0.537 and 0.486 and 0.69 and 0.53 and 0.735 and 0.614

Excerpt of the above:
SMILES	target or system	test	system	setting	how to read	measurement	value
NNC(=O)Cc1ccccc1		hydrazine ligation kinetics, absorbance		concentration not given, 50 s, with: 2-formylphenylboronic acid		normalised absorbance	0.762
COc1ccccc1-c1ccncc1C(=O)Nc1nnc(OCc2ccc(Cl)cc2)s1			Brca1 Δ11/Δ11 MEF sgGFP, Mus musculus	10 µM, mean of runs 2, 3	reference: 0 µM	colony survival	46.6%
Cc1ccc(S(=O)(=O)NN)cc1		hydrazine ligation kinetics, absorbance		concentration not given, 30 s, with: 2-formylphenylboronic acid		normalised absorbance	0.847
Cc1cc(NC(=O)CCN2CCCCC2)ccc1Br		locomotor activity in dark	Danio rerio larvae, 7 dpf, well of 10 larvae	10 µM, minute 1, dark		third-quartile larval motion	2.7 ± 0.6 pixels/frame
CC[C@H](C)[C@@H](C(=O)N[C@@H](CC(C)C)C(=O)N[C@@H](CO)C(=O)N[C@@H](CO)C(=O)N[C@H](C(=O)N[C@@H](CCC(=O)O)C(=O)N[C@H](C(=O)NCC(=O)N[C@@H](CO)C(=O)N[C@@H](CO)C(=O)N[C@H](C(=O)N1CCC[C@H]1C(N)=O)[C@@H](C)O)C(C)C)[C@@H](C)O)N(C)C(=O)[C@H](C)NC(=O)CN(C)C(=O)[C@H](Cc1ccccc1)NC(=O)[C@H](CO)NC(=O)[C@H](CO)NC(=O)[C@H](CCCNC(=N)N)NC(=O)[C@H](CCC(N)=O)NC(=O)[C@H](CC(C)C)NC(=O)[C@H](Cc1ccccc1)NC(=O)[C@H](Cc1c[nH]cn1)NC(=O)[C@H](C)NC(=O)[C@H](CC(C)C)NC(=O)[C@H](CCCNC(=N)N)NC(=O)[C@H](CCC(=O)O)NC(=O)[C@@H](NC(=O)[C@H](C)NC(=O)[C@@H]1CSSC[C@H](NC(=O)[C@H](CCCNC(=N)N)NC(=O)CC[C@H](NC(=O)CCCCCCCCCCCCCCCCCCC(=O)O)C(=O)O)C(=O)NCC(=O)N[C@@H]([C@@H](C)O)C(=O)N[C@@H](C)C(=O)N[C@@H]([C@@H](C)O)C(=O)N1)[C@@H](C)O			male Sprague-Dawley rats	subcutaneous, 30 nmol/kg single dose, 96 h		body weight loss	5.1 ± 0.2%
